# Values quoted from earlier work as cited in several papers.
# Numbers after ± are the reported error.
SMILES,test system,conditions,how to read,measurement,value
CO[C@H]1C[C@@H]2CC[C@@H](C)[C@@](O)(O2)C(=O)C(=O)N2CCCC[C@H]2C(=O)O[C@H]([C@H](C)C[C@@H]2CC[C@@H](OCCO)[C@H](OC)C2)CC(=O)[C@H](C)/C=C(\C)[C@@H](O)[C@@H](OC)C(=O)[C@H](C)C[C@H](C)/C=C/C=C/C=C/1C,human,"2 mg single dose, together with: ketoconazole 200 mg twice daily",reference: with over without ketoconazole,Cmax ratio,3.9 fold
COc1cccc(-c2c(C)n(Cc3c(F)cccc3C(F)(F)F)c(=O)n(C[C@H](NCCCC(=O)O)c3ccccc3)c2=O)c1F,human,"150 mg single dose, together with: rifampin 600 mg once daily, day 10",reference: with rifampin over alone,Cmax ratio,2
COc1cccc(CCc2ccccc2OCC(CN(C)C)OC(=O)CCC(=O)O)c1 (racemic),human,"oral, 50 mg single dose as hydrochloride, geometric mean",,Cmax,269 ng/mL
Cc1cc(-c2ccc(C(=O)[C@@H]3CCCC[C@H]3C(=O)Nc3cnn4c3C(=O)NCC4)cc2)n[nH]1,"human, non-Japanese","oral, 600 mg multiple doses, day 10, geometric mean",,Cmax,5.69 µM
CCN1C(=O)N(c2c(F)c(OC)cc(OC)c2F)Cc2cnc3[nH]c(CN4CCOCC4)cc3c21,human cancer patients,"oral, 13.5 mg once daily, geometric mean",,Cmax at steady state,0.236 µM
CN1CCN(c2ccc3nc(-c4c(N)c5c(F)cccc5[nH]c4=O)[nH]c3c2)CC1,human,"oral, 500 mg once daily, day 15",,Cmax,267 ± 178 ng/mL
CC(=O)O[C@@]12CO[C@@H]1C[C@H](O)[C@@]1(C)C(=O)[C@H](O)C3=C(C)[C@@H](OC(=O)[C@H](O)[C@@H](NC(=O)OC(C)(C)C)c4ccccc4)C[C@@](O)([C@@H](OC(=O)c4ccccc4)[C@H]21)C3(C)C,"human, plasma","concentration not given, total concentration",,Cmax,3.7 µM
CNCc1cc(-c2ccccc2F)n(S(=O)(=O)c2cccnc2)c1,human,"oral, single dose, NG, together with: clarithromycin, multiple doses",reference: with over without clarithromycin,Cmax ratio,~1.35 fold
CCCCCOC(=O)Nc1nc(=O)n([C@@H]2O[C@H](C)[C@@H](O)[C@H]2O)cc1F,"human, plasma","concentration not given, total concentration",,Cmax,9.7 µM
CCCCC(CC)COC(=O)C(C#N)=C(c1ccccc1)c1ccccc1 (stereo not drawn),"human, plasma","topical, 2 mg/cm^2 to 75% body surface, day 1, sunscreen",,Cmax geometric mean,1.5 ng/mL
CN(C)C/C=C/C(=O)Nc1cc2c(Nc3ccc(F)c(Cl)c3)ncnc2cc1O[C@H]1CCOC1,"human, plasma","concentration not given, total concentration",,Cmax,0.078 µM
CCCCC(CC)COC(=O)C=Cc1ccc(OC)cc1 (stereo not drawn),"human, plasma","topical, 4 times daily days 2-4, day 4, sunscreen",,Cmax geometric mean,7.9 ng/mL

# A few entries again:
SMILES,test system,conditions,how to read,measurement,value
CO[C@H]1C[C@@H]2CC[C@@H](C)[C@@](O)(O2)C(=O)C(=O)N2CCCC[C@H]2C(=O)O[C@H]([C@H](C)C[C@@H]2CC[C@@H](OCCO)[C@H](OC)C2)CC(=O)[C@H](C)/C=C(\C)[C@@H](O)[C@@H](OC)C(=O)[C@H](C)C[C@H](C)/C=C/C=C/C=C/1C,human,"2 mg single dose, together with: ketoconazole 200 mg twice daily",reference: with over without ketoconazole,Cmax ratio,3.9 fold
CNCc1cc(-c2ccccc2F)n(S(=O)(=O)c2cccnc2)c1,human,"oral, single dose, NG, together with: clarithromycin, multiple doses",reference: with over without clarithromycin,Cmax ratio,~1.35 fold
